Values quoted from earlier work, collected from citations in different studies.
Numbers after ± are the reported error.
ribH: 6,7-dimethyl-8-ribityllumazine synthase (ribH, Mycobacterium tuberculosis, UniProt P9WHE9)
Sequence of UniProt P9WHE9 (whole entry, looked up): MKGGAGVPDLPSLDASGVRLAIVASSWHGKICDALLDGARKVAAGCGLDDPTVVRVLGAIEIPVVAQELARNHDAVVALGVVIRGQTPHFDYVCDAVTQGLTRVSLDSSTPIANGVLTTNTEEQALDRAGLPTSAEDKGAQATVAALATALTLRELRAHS
Sequence of UniProt P07686 (whole entry, looked up): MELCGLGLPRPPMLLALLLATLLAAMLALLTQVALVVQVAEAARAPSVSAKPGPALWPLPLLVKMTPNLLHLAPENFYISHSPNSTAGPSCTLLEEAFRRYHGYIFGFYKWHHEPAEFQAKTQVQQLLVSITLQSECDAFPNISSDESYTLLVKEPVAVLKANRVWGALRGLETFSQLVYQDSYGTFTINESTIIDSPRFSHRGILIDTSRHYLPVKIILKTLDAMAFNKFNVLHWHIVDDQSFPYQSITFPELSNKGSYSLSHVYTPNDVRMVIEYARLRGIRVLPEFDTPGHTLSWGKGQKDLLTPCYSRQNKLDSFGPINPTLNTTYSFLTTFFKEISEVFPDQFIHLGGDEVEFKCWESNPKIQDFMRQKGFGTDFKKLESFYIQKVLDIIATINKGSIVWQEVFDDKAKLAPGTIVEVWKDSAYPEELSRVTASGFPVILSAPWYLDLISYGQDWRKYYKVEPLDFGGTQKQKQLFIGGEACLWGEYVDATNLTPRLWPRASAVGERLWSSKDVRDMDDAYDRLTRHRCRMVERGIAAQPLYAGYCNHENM
Sequence of UniProt P42336 (whole entry, looked up): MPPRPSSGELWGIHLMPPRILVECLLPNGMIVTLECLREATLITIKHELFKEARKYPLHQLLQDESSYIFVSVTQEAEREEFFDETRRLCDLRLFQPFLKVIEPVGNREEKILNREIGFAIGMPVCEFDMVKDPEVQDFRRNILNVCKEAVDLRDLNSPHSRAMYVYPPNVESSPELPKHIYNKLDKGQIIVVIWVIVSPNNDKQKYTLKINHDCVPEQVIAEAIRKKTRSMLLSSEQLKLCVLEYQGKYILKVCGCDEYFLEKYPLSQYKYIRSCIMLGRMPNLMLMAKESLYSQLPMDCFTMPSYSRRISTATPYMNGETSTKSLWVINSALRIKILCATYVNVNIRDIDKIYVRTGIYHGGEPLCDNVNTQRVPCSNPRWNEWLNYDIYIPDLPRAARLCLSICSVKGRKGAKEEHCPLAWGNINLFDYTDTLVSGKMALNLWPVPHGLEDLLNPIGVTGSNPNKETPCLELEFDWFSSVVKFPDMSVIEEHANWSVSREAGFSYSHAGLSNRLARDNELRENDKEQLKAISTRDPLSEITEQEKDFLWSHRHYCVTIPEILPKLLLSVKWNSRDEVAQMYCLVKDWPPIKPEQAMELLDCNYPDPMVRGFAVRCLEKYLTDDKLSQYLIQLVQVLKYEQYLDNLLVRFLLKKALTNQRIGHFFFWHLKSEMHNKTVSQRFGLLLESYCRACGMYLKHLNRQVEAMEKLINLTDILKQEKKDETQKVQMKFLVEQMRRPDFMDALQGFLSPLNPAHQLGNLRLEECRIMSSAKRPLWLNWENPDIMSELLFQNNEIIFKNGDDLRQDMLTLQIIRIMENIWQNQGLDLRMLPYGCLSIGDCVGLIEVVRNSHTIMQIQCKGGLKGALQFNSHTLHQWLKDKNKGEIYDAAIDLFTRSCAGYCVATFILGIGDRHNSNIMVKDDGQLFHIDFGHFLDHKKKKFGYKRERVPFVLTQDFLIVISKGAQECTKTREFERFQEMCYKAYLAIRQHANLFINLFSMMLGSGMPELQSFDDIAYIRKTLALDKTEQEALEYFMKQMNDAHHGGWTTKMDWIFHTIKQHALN
Sequence of UniProt Q99720 (whole entry, looked up): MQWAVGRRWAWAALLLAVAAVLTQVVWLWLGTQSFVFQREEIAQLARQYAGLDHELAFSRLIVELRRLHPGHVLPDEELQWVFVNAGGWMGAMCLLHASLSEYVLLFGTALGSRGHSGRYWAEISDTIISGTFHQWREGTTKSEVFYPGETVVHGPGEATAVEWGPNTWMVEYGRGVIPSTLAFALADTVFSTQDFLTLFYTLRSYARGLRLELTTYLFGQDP
Sequence of UniProt P53341 (whole entry, looked up): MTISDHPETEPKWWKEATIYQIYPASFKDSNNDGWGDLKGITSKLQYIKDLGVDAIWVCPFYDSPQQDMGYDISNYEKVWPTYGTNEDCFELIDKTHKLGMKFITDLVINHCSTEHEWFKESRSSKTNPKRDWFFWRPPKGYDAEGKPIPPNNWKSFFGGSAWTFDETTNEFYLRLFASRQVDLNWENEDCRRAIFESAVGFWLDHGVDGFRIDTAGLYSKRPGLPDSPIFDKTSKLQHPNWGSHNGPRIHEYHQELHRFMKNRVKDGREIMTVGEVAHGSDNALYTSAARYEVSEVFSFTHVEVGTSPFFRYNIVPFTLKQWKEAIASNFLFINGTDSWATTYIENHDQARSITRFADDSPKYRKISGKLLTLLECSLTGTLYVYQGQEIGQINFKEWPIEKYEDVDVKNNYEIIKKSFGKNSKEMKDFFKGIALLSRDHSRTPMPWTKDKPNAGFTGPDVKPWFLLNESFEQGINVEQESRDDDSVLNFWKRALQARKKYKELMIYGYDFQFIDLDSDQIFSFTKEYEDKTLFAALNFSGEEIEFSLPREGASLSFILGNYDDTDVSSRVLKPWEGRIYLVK
Sequence of UniProt Q5U3Y7 (whole entry, looked up): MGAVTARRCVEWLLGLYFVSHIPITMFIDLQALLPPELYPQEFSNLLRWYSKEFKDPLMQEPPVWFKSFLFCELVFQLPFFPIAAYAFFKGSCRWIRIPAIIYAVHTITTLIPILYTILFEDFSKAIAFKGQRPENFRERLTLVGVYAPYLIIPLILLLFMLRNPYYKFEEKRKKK
Sequence of UniProt Q9ZMY2 (whole entry, looked up): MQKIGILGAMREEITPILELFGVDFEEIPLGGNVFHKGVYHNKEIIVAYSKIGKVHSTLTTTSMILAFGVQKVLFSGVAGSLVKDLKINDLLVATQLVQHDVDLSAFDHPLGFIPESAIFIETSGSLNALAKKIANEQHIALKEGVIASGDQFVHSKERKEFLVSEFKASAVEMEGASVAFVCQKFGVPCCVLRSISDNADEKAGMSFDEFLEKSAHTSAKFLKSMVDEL
Sequence of UniProt Q16819 (whole entry, looked up): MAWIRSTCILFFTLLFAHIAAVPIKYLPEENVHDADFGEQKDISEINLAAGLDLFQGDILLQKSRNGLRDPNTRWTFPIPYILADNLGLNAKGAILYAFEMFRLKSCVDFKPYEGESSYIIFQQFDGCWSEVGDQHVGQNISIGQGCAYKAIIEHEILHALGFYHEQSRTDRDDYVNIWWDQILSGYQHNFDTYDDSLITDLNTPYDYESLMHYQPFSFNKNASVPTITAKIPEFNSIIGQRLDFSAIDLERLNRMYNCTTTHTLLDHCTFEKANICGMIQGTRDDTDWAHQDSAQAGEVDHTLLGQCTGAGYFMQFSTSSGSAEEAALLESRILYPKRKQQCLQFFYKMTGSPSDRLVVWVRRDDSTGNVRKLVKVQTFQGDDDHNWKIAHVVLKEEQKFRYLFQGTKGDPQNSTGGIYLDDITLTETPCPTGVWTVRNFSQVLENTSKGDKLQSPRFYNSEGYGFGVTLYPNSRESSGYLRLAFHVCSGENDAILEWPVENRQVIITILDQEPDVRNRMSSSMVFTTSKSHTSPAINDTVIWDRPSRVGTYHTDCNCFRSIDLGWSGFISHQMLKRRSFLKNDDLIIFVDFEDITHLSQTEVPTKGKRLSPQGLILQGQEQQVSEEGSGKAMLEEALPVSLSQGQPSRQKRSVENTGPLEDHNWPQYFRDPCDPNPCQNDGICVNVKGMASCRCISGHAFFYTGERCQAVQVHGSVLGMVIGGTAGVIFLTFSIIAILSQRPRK
Sequence of UniProt P21917 (whole entry, looked up): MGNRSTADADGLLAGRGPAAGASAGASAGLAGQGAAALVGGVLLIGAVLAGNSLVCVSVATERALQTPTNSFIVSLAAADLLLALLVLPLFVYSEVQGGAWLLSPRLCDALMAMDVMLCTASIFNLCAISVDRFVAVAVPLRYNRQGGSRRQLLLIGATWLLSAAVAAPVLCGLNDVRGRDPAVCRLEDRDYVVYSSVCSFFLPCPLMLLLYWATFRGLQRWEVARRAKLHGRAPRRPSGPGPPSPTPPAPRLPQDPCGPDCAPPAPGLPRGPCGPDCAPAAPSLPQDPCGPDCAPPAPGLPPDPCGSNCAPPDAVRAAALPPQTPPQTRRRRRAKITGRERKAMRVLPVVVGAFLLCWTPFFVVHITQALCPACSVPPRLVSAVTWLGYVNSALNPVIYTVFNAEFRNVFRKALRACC
Sequence of UniProt P04746 (whole entry, looked up): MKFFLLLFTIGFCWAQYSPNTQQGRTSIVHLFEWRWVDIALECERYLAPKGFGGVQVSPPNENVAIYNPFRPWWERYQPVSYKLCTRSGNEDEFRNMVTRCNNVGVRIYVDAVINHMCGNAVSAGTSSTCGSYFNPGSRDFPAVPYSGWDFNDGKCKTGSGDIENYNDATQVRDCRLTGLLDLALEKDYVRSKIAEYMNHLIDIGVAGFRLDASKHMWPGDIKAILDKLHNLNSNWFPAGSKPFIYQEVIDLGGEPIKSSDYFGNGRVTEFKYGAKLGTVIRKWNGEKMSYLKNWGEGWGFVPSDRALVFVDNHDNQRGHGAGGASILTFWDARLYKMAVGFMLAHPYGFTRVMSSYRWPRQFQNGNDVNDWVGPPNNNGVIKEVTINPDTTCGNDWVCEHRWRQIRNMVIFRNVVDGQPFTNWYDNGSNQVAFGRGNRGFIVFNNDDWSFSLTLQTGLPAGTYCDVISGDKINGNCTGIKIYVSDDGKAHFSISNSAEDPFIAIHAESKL

Compound | tested on | assay | system | conditions | measurement | value
Nc1c(SC[C@H](O)[C@H](O)[C@H](O)CO)[nH]c(=O)[nH]c1=O | ribH | inhibitor | – | pH 7.0 | Ki | 31000 ± 11000 nM
O=C(c1ccc(F)cc1)C1CCN(C2Cc3c(cccc3OCCF)CC2O)CC1 (single isomer, unassigned; (-)) | sigma-2 receptor | binding | – | – | Ki | > 10000 nM
C=CC(=O)N1CCC[C@@H](n2nc(-c3ccc4ccccc4c3)c3c(N)ncnc32)C1 | EGFR (Homo sapiens, UniProt P00533, L858R/T790M) | – | – | – | Ki | 1.5 ± 0.8 nM
NS(=O)(=O)c1ccc(CCNC(=O)CSc2nc3ccc(I)cc3c(=O)n2Cc2ccccc2)cc1 | carbonic anhydrase XII, human | – | – | – | Ki | 5.2 to 8.9 nM
c1cc2c(cc1OCCCN1CCCCC1)CN1CCCC1=N2 | histamine H3 receptor (human) | binding | – | – | Ki | 76.2 nM
C[C@@H]1O[C@@H](O[C@@H]2CO[C@@H](Oc3c(O)cc(-c4oc5cc(O)cc(O)c5c(=O)c4O[C@@H]4O[C@@H](C)[C@H](O)[C@@H](O)[C@H]4O[C@@H]4O[C@H](COC(=O)/C=C/c5ccc(O)c(O)c5)[C@@H](O)[C@H](O)[C@H]4O[C@@H]4O[C@H](CO)[C@@H](O)[C@H](O)[C@H]4O)cc3O)[C@H](O)[C@H]2O)[C@H](O)[C@H](O)[C@H]1O | Pancreatic alpha-amylase (Homo sapiens, UniProt P04746) | – | – | – | Ki | 8 nM
C/C(=N\NC(=O)CSc1nc2ccccc2c(=O)n1CCc1ccc(S(N)(=O)=O)cc1)c1ccccc1 | CA9 (Homo sapiens, UniProt Q16790) | – | – | – | Ki | 55.7 nM
CC(C)C1=C(O)C(=O)C2=C(C1=O)[C@H](O)[C@@H](O)[C@H]1C(C)(C)CCC[C@]21C | TK-10 | cell growth | – | – | GI50 | > 30000 nM
COc1cc2c(cc1OC)CN(CCCCn1ccc3c(OCCF)cccc31)CC2 | SIGMAR1 (Homo sapiens, UniProt Q99720) | binding | – | – | Ki | 1700 ± 548 nM
Nc1nc2c(CNCCCP(=O)(O)O)c[nH]c2c(=O)[nH]1 | Plasmodium falciparum HGXPRT | inhibitor | – | – | Ki | 110 ± 6 nM
Nc1nc(N)c2c(n1)[nH]c1ccc(O)cc12 | Pteridine reductase (PTR1, Trypanosoma brucei brucei, UniProt O76290) | – | – | – | Ki | 83000 nM
O=C(/C=C/c1ccsc1)c1cc2ccccc2oc1=O | adenosine A3 receptor (human) | – | – | – | Ki | 5200 nM
CNC(=O)C(Cc1ccccc1)NC(=O)C(O)(Cc1ccccc1)CN(Cc1ccc(Br)cc1)NC(=O)C(NC(=O)OC)C(C)(C)C (centres unmarked) | Gag-Pol polyprotein, protease (gag-pol, Human immunodeficiency virus type 1 group M subtype B, UniProt P04585) | inhibitor | – | – | Ki | 860 nM
COc1ccccc1N1CCN(CC(O)CCNC(=O)c2ccc(-c3ccccn3)cc2)CC1 (centres unmarked) | DRD4 (Homo sapiens, UniProt P21917) | – | – | – | Ki | 4470 ± 993 nM
O=C(CN(Cc1ccccc1)Cc1ccccc1)NO | MEP1A (Homo sapiens, UniProt Q16819) | inhibitor | – | – | Ki | 7870 nM
COc1cc2c(cc1OC)CN(CCCCn1ccc3cc(OCC[18F])ccc31)C2 | Tmem97 (Rattus norvegicus, UniProt Q5U3Y7) | binding | – | – | Ki | 3.27 ± 0.19 nM
COc1ccccc1S | carbonic anhydrase II, human | inhibitor | – | – | Ki | 3200 ± 300 nM
O=c1[nH]c(O)nc2c(CN[C@H](CO)CCP(=O)(O)O)c[nH]c12 | Plasmodium falciparum HGXPRT | inhibitor | – | – | Ki | 8000 ± 500 nM
CNC(=O)[C@@]12C[C@@H]1[C@@H](n1cnc3c(NCc4cccc(Cl)c4)nc(SC)nc31)[C@H](O)[C@@H]2O | adenosine A3 receptor | – | – | – | Ki | 1.5 nM
NS(=O)(=O)c1ccc(CCn2c(S)nc3ccccc3c2=O)cc1 | carbonic anhydrase I | enzyme activity, inhibitor | – | – | Ki | 31.5 nM
COCCOc1cc2ncnc(Nc3cccc(-c4cn(-c5ccccc5S(N)(=O)=O)nn4)c3)c2cc1OCCOC | Helicobacter pylori alpha-carbonic anhydrase | inhibitor, stopped-flow CO2 hydration | – | – | Ki | 252 nM

Compound | tested on | assay | system | conditions | measurement | value
CCC(=O)NCCNC(=O)N=C(N)NCCC[C@@H](NC(=O)C(c1ccccc1)c1ccccc1)C(=O)NCc1ccc(O)cc1 | NPFF1R | binding | – | – | Ki | 1000 nM
CC(=N)NCc1cccc(CN)c1 | human nNOS | – | – | – | Ki | 2000 nM
Nc1nc2c([C@@H]3N[C@H](COP(=O)(O)O)[C@@H](O)[C@H]3O)c[nH]c2c(=O)[nH]1 | Trypanosoma cruzi HGPRT | inhibitor | – | – | Ki | 1100 ± 400 nM
O=c1[nH]c(NC[C@H](O)[C@H](O)[C@H](O)CO)c([N+](=O)[O-])c(=O)[nH]1 | Bacillus subtilis lumazine synthase | inhibitor | recombinant β60 capsid | pH 7.0, Tris·HCl buffer, together with: 2 constant, 1 varied | Ki | 16000 ± 1000 nM
COCCOc1cc2ncnc(Nc3cccc(-c4cn(CC(=O)Nc5ccc(S(N)(=O)=O)cc5)nn4)c3)c2cc1OCCOC | Helicobacter pylori alpha-carbonic anhydrase | inhibitor, stopped-flow CO2 hydration | – | – | Ki | 56.3 nM
COc1ccc(C2(CNC(=O)[C@](C)(Cc3c[nH]c4ccccc34)NC(=O)Nc3ccc([N+](=O)[O-])cc3)CCCCC2)nc1 | gastrin-releasing peptide receptor | binding | – | – | Ki | 1 nM
COc1cc2c(cc1OC)[C@@H]1C[C@H](O)[C@@H](CC(C)C)CN1CC2 | dopamine D2 receptor | binding | – | – | Ki | 0.058 µg/mL
NS(=O)(=O)c1ccc(CCn2c(SCC(=O)N/N=C/c3ccccc3)nc3ccccc3c2=O)cc1 | CA12 (Homo sapiens, UniProt O43570) | enzyme activity, inhibitor | – | – | Ki | 38.4 nM
CCCCOC(=O)NS(=O)(=O)c1sc(CC(C)C)cc1-c1cccc(CN(Cc2cccs2)C(C)=O)c1 | angiotensin II type 2 receptor, pig | – | uterus membranes | – | Ki | 2.2 nM
O=c1[nH]cnc2c(CN[C@@H](CO)CCP(=O)(O)O)c[nH]c12 | Trypanosoma cruzi HGPRT | inhibitor | – | – | Ki | 500 ± 30 nM
CC(C)(O/N=C(\C(=O)NCB(O)O)c1csc(N)n1)C(=O)O | ADC-7 beta-lactamase | inhibitor | – | – | Ki | 310 nM
CCCCSC[C@H]1CN(Cc2c[nH]c3c(N)ncnc23)C[C@@H]1O | Aminodeoxyfutalosine nucleosidase (Helicobacter pylori, UniProt Q9ZMY2) | inhibitor | – | – | Ki | 0.036 nM
CCOC(=O)C(=O)Nc1c(NC[C@H](O)[C@H](O)[C@H](O)CO)[nH]c(=O)[nH]c1=O | ribH | inhibitor | – | pH 7.0 | Ki | 4000 ± 1700 nM
O=C(Cn1cc(CNC(=O)c2c3ccccc3nc3ccccc23)nn1)Nc1cccc(Br)c1 | MAL12 (Saccharomyces cerevisiae S288c, UniProt P53341) | inhibitor | – | – | Ki | 78000 nM
O=c1[nH]cnc2c([C@@H]3N[C@H](COP(=O)(O)O)[C@@H](O)[C@H]3O)c[nH]c12 | Trypanosoma cruzi HGPRT | inhibitor | – | – | Ki | 170 ± 30 nM
O=c1[nH]c(SC[C@H](O)[C@H](O)[C@H](O)CO)c([N+](=O)[O-])c(=O)[nH]1 | ribH | inhibitor | – | pH 7.0 | Ki | 11000 ± 2000 nM
NCCN1C(=O)c2cccc3cccc(c23)C1=O | HEXB (Homo sapiens, UniProt P07686) | – | – | – | Ki | 2080 nM
CC(=C(C#N)C#N)c1ccc2cc(N(C)CCF)ccc2c1 | amyloid beta fibrils | binding | in vitro generated fibrils | – | Ki | 42 nM
COCCOCCOCCOCCC(=O)NCc1cc(CNC(=O)CCOCCOCCOCCOC)cc(-c2cc3cc4nc(c(OC)c5[nH]c(cc6nc(cc2[nH]3)CC6(C)C)cc5-c2cc(CNC(=O)CCOCCOCCOCCOC)cc(CNC(=O)CCOCCOCCOCCOC)c2)CC4(C)C)c1 | – | – | PBS | room temperature | Qy absorption maximum | 727 nm
C[C@@H]1COCCN1c1nc(-c2cnc(N)nc2)nc2c1C[C@@H]1COCCN21 | PIK3CA (Homo sapiens, UniProt P42336) | binding, TR-FRET displacement | – | – | Ki | 536 ± 22 nM
